Assay results from different studies.
Compare with care: the assays were run in different laboratories. ± marks the error that the study gave.

With `NC12CC3CC(CC(C3)C1)C2` the EC50 was 0.54 ± 0.11 µM (Influenza A virus H1N1; viral replication; A/Brisbane/59/2007).
`Cn1cnc(Cn2c(=O)[nH]/c(=N\c3cc4cn(C)nc4cc3Cl)n(Cc3cc(F)c(F)cc3F)c2=O)n1` has an EC50 of ~50 µM (transmissible gastroenteritis virus; viral replication, qRT-PCR; ST).
`CCCCCCC(C)(C)c1cc(O)c2c(c1)OC(C)(C)[C@@H]1CC=C(C(=O)O)C[C@@H]21` has an EC50 of > 100 µM (SARS-CoV-2; viral replication, GFP plate reader screen; cell-based).
`O=C(NCC1CCOC2(CCN(C(=O)C3(c4ccccc4)CCCC3)CC2)C1)c1ccccc1` (centres unmarked) gave an EC50 of 15.8 µM (Venezuelan equine encephalitis virus; viral replication).
`O=c1ccn([C@@H]2O[C@](F)(CO)[C@@H](O)[C@H]2O)c(=O)[nH]1` gave an EC50 of 10.1 µM (Mammarenavirus lassaense; viral replication; HeLa, Togo).
For `CN(C)CCCN1c2ccccc2Sc2ccccc21`, the EC50 was 16.2 µM (SARS-CoV-2; viral replication, GFP plate reader screen; cell-based).
`NC(=O)c1ncn([C@@H]2O[C@H](CO)[C@@H](O)[C@H]2O)n1` gave an EC50 of 13.8 ± 11.2 µM (Junin virus; viral replication, inhibitor; Vero, Candid #1).
`CCOc1ncc(NC(=O)c2cc3occc3n2Cc2ccc(Cl)cc2)cc1F` gave an EC50 of > 100 µM (Marburg virus; pseudovirus entry; A549).
With `O=c1ccn([C@H]2[C@H](O)[C@H](O)[C@@H](CO)[C@@H]2F)c(=O)[nH]1` the EC50 was > 100 µM (MERS-CoV; viral replication; Vero).
`oseltamivir carboxylate` gave an EC50 of 9 µM (Influenza A virus H3N2; visual CPE score).
`CCCCCCCCCCCCCCCCOCCCOP(=O)(O)CO[C@H](CO)Cn1ccc(N)nc1=O` has an EC50 of 0.87 ± 0.1 µM (Monkeypox virus; viral replication; Vero).
`Cc1c(CN2CCN(c3cccc(C(F)(F)F)c3)CC2)cc(-c2ccccc2)n1NC(=O)c1ccncc1` has an EC50 of > 100 µM (SARS-CoV-2; viral replication, GFP plate reader screen; cell-based).
With `CN(C)C1CCN(C(=O)c2cc3ccccc3n2CC2CCCCC2)CC1` the EC50 was 0.771 ± 0.07 µM (Sudan ebolavirus; pseudovirus infection; A549).
For `Cc1cc2ncn(-c3ccc(OC(C)(C)C)cc3)c2cc1-c1ccc(OC(C)(C)O)cc1`, the EC50 was ≤ 0.004 µM (vesicular stomatitis virus; viral entry, inhibitor; pseudotyped with Lassa virus glycoprotein).
With `CO[C@H]1/C=C/O[C@@]2(C)Oc3c(C)c(O)c4c(O)c(c(/C=N/N5CCN(C6CCCC6)CC5)c(O)c4c3C2=O)NC(=O)/C(C)=C\C=C\[C@H](C)[C@H](O)[C@@H](C)[C@@H](O)[C@@H](C)[C@H](OC(C)=O)[C@@H]1C` the EC50 was 0.436 µM (Yellow fever virus; viral replication; SH-SY5Y).
`NC(=O)c1nc(F)c[nH]c1=O` gave an EC50 of 64 µM (Mammarenavirus choriomeningitidis; viral replication; KB).
With `CCC(=O)c1ccc2c(c1)N(CCCN1CCN(CCO)CC1)c1ccccc1S2` the EC50 was > 100 µM (SARS-CoV-2; viral replication, high-content imaging screen; cell-based).
With `CS(=O)(=O)NCC1CCOC2(CCN(C(=O)C3(c4cccc(Cl)c4)CCCC3)CC2)C1` (centres unmarked) the EC50 was 10 µM (Venezuelan equine encephalitis virus; viral replication).
For `NC(=O)c1ncn([C@@H]2O[C@H](CO)[C@@H](O)[C@H]2O)n1`, the EC50 was 50 to 200 µg/mL (SARS coronavirus; FRhK-4; 72 h).
`Cc1cc2ncn(-c3ccc(OC(C)C)cc3)c2cc1-c1ccc(OC(C)C)cc1` gave an EC50 of ≤ 0.004 µM (vesicular stomatitis virus; viral entry, inhibitor; pseudotyped with Machupo virus glycoprotein).
With `CCN(CC)CCCC(C)Nc1ccnc2cc(Cl)ccc12` (centres unmarked) the EC50 was 27.9 µM (Feline infectious peritonitis virus; viral replication, visual scoring; 48 h).
`CC(=O)[C@@]12O[C@](C)(c3ccccc3)O[C@@H]1C[C@H]1[C@@H]3CCC4=CC(=O)CC[C@]4(C)[C@H]3CC[C@@]12C` has an EC50 of > 100 µM (SARS-CoV-2; viral replication, GFP plate reader screen; cell-based).
`CCCCCCN(CC1CCOC2(CCN(C(=O)C3(c4ccccc4)CCCC3)CC2)C1)S(C)(=O)=O` (centres unmarked) has an EC50 of 10 µM (Venezuelan equine encephalitis virus; viral replication).
`COc1ccc2cc1Oc1ccc(cc1)C[C@H]1c3c(cc4c(c3Oc3cc5c(cc3OC)CCN(C)[C@@H]5C2)OCO4)CCN1C` gave an EC50 of 1.92 µM (Severe acute respiratory syndrome coronavirus; pseudoparticle entry; Vero C1008; 48 h).
With `COC(=O)NCCc1c(C(O)c2ccccc2)[nH]c2ccc(OC)cc12` (centres unmarked) the EC50 was 1 µM (lentivirus, spike-pseudotyped, SARS-CoV-2; viral entry; HEK293).
With `CC(C)[C@H](NC(=O)[C@H](CCCNC(=N)N)NC(=O)N[C@@H](Cc1ccccc1)C(=O)O)C(=O)N[C@H](C=O)CCCNC(=N)N` the EC50 was 0.64 µM (SARS-CoV-2 prototype; pseudovirus infection; 48 h).
For `O=C(NCC1CCOC2(CCN(C(=O)C3(c4ccccc4)CCCC3)CC2)C1)c1ccncc1` (centres unmarked), the EC50 was > 39.8 µM (Venezuelan equine encephalitis virus; viral replication).
`O=c1[nH]c(=O)n([C@H]2C[C@H](O)[C@@H](CO)O2)cc1/C=C/Br` has an EC50 of 17 µM (vaccinia virus; viral replication; HEL).
The EC50 of `Cc1cc2nnn(-c3ccc(OC(C)C)cc3)c2cc1-c1ccc(OC(C)C)cc1` is reported as ≤ 0.004 µM (vesicular stomatitis virus; viral entry, inhibitor; pseudotyped with Junin virus glycoprotein).
`CCC(C(=O)Nc1sc(C(N)=O)c(C)c1C(=O)OC)c1ccc(F)cc1` (centres unmarked) gave an EC50 of ~10 µM (vaccinia virus; viral replication).
`COc1cccc(C(=O)NCC2CCOC3(CCN(C(=O)C4(c5ccccc5)CCCC4)CC3)C2)c1` (centres unmarked) has an EC50 of 6.31 µM (Venezuelan equine encephalitis virus; viral replication).
With `O=c1nc(NO)ccn1[C@@H]1O[C@H](CO)[C@@H](O)[C@H]1O` the EC50 was 0.4 ± 0.3 µM (SARS-CoV-2 Washington strain; viral replication, qRT-PCR; Calu-3).
For `NC(=O)c1ncn([C@@H]2O[C@H](CO)[C@@H](O)[C@H]2O)n1`, the EC50 was 2.6 µM (Mammarenavirus juninense; viral replication, item: JUNV; HEK-293T).
With `O=C1c2c(O)c(=O)ccn2N([C@@H]2c3ccccc3SCc3c2ccc(F)c3F)[C@@H]2COCCN12` the EC50 was 0.00017 ± 2e-05 µM (Influenza A virus H5N1; viral replication, plaque reduction; A/duck/Bangladesh/31028/2016).
For `CN(CC1CCOC2(CCN(C(=O)C3(c4ccccc4)CCCC3)CC2)C1)C(=O)c1ccccn1` (centres unmarked), the EC50 was > 39.8 µM (Venezuelan equine encephalitis virus; viral replication).
For `CC(C)Oc1ccc(-c2ccc3cnc(-c4ccc(OC(C)C)cc4)n3c2)cc1`, the EC50 was > 0.02 µM (vesicular stomatitis virus; viral entry, inhibitor; pseudotyped with Machupo virus glycoprotein).
`NC(=O)c1nc(F)c[nH]c1=O` has an EC50 of 4.4 ± 2.7 µM (Junin virus; viral replication, inhibitor; Vero, Candid #1).
With `CCC(C)n1ncn(-c2ccc(N3CCN(c4ccc(OCC5COC(Cn6cncn6)(c6ccc(Cl)cc6Cl)O5)cc4)CC3)cc2)c1=O` (centres unmarked) the EC50 was 1.54 ± 0.02 µM (PV2; viral replication; 72 h).
`O=C(Nc1ccc(N2CCC3(CCC3)CC2)c(C(F)(F)F)c1)c1ccc(C(=O)N2C[C@H]3C[C@@H]2CO3)nc1` has an EC50 of 1.92 ± 1.09 µM (Marburg virus Angola; viral replication; wild type).
For `CN1CCC(=C2c3ccccc3Oc3ccc(Cl)cc32)CC1`, the EC50 was > 20 µM (SARS-CoV-2; viral replication, GFP plate reader screen; cell-based).
For `N#Cc1c(Nc2ccc(F)cc2)n[nH]c1NS(=O)(=O)c1ccc2ccccc2c1`, the EC50 was > 25 µM (Powassan virus; viral replication; BHK-21).
The EC50 of `COc1cc(Br)c2oc(C3CCNCC3)cc2c1` is reported as 14.8 µM (SARS-CoV-2; viral replication, GFP plate reader screen; cell-based).
The EC50 of `O=C(N1CCC2(CC1)C[C@H](CN1CCCCS1(=O)=O)CCO2)C1(c2ccccc2)CCCC1` is reported as > 32 µM (Powassan virus; viral replication).
`COc1ccc(C2(C(=O)N3CCC4(CC3)CC(CNS(C)(=O)=O)CCO4)CCCC2)cc1` (centres unmarked) has an EC50 of > 39.8 µM (Venezuelan equine encephalitis virus; viral replication).
The EC50 of `CCN(CC)Cc1ccc2cc(COC(=O)Nc3ccc(C(=O)NO)cc3)ccc2c1` is reported as 10.5 µM (SARS-CoV-2; viral replication, GFP plate reader screen; cell-based).
`Cc1cc2ncc(-c3ccc(OC(C)(C)C)cc3)n2cc1-c1ccc(OC(C)C)cc1` has an EC50 of ≤ 0.004 µM (vesicular stomatitis virus; viral entry, inhibitor; pseudotyped with Junin virus glycoprotein).
With `O=C(N1CCC2(CC1)CC(CN1CCCS1(=O)=O)CCO2)C1(c2ccccc2)CCCC1` (centres unmarked) the EC50 was 1.58 µM (Venezuelan equine encephalitis virus; viral replication).

A few entries again:
`COc1cccc(C(=O)NCC2CCOC3(CCN(C(=O)C4(c5ccccc5)CCCC4)CC3)C2)c1` (centres unmarked) has an EC50 of 6.31 µM (Venezuelan equine encephalitis virus; viral replication).
The EC50 of `CCN(CC)Cc1ccc2cc(COC(=O)Nc3ccc(C(=O)NO)cc3)ccc2c1` is reported as 10.5 µM (SARS-CoV-2; viral replication, GFP plate reader screen; cell-based).
For `N#Cc1c(Nc2ccc(F)cc2)n[nH]c1NS(=O)(=O)c1ccc2ccccc2c1`, the EC50 was > 25 µM (Powassan virus; viral replication; BHK-21).
`CCCCCCCCCCCCCCCCOCCCOP(=O)(O)CO[C@H](CO)Cn1ccc(N)nc1=O` has an EC50 of 0.87 ± 0.1 µM (Monkeypox virus; viral replication; Vero).
`NC(=O)c1ncn([C@@H]2O[C@H](CO)[C@@H](O)[C@H]2O)n1` gave an EC50 of 13.8 ± 11.2 µM (Junin virus; viral replication, inhibitor; Vero, Candid #1).
